Assay results from different studies.
Each line is one published result; not all experiments were run side by side. “And” joins repeats or separate records; there may be more than shown. ± gives the spread as reported.
BCHE: Cholinesterase (BCHE, Equus caballus, UniProt P81908)
Chain of UniProt P81908 (whole entry, looked up): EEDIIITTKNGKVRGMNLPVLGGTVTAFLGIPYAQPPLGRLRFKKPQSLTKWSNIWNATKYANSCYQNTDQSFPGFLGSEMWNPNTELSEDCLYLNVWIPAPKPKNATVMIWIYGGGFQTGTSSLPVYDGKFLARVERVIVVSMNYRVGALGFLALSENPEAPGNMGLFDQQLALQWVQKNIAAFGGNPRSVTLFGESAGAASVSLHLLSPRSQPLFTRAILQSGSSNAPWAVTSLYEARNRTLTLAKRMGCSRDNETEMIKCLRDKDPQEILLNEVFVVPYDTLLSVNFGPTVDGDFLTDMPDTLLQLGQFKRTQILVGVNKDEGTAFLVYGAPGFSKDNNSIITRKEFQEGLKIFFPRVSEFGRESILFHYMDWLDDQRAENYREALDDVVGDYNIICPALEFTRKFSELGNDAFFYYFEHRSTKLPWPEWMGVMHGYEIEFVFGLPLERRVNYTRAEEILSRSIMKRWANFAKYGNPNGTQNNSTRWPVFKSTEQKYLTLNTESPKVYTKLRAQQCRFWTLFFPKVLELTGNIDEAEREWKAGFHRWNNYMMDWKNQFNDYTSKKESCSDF
Chain of UniProt P21917 (whole entry, looked up): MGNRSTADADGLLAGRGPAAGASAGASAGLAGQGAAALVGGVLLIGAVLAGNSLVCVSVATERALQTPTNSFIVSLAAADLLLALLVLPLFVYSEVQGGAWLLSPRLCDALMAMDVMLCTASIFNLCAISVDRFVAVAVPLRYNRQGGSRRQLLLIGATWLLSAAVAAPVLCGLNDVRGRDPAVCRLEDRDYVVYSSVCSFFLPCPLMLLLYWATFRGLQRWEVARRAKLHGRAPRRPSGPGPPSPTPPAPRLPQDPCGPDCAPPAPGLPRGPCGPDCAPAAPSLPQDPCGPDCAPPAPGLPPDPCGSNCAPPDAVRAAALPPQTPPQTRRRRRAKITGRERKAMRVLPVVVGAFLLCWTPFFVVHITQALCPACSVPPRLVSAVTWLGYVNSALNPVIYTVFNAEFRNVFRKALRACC
Chain of UniProt Q9Y6L6 (whole entry, looked up): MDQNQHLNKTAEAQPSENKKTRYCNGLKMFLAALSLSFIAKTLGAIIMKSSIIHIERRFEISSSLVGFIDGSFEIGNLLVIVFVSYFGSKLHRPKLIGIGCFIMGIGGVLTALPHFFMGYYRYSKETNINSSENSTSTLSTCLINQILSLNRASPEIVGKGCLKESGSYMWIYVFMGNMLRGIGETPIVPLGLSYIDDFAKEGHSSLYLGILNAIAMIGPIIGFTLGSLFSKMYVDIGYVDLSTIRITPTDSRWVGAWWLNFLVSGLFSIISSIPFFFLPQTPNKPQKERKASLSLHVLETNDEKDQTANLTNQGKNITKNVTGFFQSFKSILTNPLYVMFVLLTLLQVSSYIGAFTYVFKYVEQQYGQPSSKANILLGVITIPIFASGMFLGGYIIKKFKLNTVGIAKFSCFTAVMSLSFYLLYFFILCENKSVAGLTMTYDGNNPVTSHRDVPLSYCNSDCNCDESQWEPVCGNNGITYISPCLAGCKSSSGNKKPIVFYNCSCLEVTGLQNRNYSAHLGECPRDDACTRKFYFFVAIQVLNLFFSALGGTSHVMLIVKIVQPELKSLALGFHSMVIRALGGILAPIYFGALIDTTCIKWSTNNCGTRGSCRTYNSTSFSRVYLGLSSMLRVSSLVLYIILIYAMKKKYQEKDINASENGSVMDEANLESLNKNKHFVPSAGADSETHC
Chain of UniProt P02730 (whole entry, looked up): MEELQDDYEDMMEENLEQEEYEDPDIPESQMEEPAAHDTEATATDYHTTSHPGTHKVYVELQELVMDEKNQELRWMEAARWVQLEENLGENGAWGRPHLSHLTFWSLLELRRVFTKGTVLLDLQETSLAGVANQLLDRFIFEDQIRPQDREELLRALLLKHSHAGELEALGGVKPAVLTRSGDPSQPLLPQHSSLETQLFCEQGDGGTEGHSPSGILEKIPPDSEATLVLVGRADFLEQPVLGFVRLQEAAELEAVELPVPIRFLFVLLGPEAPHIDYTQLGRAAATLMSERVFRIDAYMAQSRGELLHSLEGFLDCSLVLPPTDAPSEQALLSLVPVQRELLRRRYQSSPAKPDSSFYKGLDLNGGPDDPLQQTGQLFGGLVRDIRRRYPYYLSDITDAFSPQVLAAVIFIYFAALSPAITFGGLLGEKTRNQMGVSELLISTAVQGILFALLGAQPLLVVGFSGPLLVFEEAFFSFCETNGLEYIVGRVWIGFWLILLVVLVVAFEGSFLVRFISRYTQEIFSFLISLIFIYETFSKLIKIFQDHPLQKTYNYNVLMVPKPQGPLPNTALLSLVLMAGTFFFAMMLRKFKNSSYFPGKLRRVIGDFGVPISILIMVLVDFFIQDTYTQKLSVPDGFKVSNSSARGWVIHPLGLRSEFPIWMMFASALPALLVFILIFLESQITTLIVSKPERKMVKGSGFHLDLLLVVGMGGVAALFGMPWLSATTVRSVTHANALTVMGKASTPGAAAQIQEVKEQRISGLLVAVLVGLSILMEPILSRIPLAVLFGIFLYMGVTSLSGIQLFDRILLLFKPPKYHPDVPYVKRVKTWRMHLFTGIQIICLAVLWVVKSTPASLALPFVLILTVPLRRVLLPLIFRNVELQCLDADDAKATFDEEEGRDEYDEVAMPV
Chain of UniProt O88704 (whole entry, looked up): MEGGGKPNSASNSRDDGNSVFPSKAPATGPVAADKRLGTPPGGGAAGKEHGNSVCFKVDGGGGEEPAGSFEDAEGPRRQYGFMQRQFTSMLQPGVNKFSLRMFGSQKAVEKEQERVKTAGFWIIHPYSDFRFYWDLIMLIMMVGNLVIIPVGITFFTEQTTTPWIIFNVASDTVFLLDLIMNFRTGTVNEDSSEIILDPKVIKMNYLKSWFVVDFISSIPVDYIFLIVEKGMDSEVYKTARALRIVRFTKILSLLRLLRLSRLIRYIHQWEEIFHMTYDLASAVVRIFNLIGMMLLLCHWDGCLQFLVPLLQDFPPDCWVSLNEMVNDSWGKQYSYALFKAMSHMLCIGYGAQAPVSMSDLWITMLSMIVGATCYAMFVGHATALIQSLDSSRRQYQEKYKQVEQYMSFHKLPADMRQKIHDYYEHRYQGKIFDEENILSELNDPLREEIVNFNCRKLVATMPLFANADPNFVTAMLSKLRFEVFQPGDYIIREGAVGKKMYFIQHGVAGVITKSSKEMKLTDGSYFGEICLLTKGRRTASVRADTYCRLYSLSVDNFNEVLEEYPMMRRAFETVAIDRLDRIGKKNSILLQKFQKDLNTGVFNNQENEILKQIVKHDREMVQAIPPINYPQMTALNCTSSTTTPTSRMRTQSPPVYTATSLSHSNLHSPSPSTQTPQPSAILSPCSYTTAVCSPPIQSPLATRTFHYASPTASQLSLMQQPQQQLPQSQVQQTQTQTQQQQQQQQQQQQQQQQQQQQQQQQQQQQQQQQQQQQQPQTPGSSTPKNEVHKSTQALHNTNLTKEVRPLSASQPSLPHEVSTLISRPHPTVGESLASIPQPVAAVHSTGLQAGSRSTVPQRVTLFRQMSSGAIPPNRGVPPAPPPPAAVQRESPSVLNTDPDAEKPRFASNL
Chain of UniProt Q2PAY2 (whole entry, looked up): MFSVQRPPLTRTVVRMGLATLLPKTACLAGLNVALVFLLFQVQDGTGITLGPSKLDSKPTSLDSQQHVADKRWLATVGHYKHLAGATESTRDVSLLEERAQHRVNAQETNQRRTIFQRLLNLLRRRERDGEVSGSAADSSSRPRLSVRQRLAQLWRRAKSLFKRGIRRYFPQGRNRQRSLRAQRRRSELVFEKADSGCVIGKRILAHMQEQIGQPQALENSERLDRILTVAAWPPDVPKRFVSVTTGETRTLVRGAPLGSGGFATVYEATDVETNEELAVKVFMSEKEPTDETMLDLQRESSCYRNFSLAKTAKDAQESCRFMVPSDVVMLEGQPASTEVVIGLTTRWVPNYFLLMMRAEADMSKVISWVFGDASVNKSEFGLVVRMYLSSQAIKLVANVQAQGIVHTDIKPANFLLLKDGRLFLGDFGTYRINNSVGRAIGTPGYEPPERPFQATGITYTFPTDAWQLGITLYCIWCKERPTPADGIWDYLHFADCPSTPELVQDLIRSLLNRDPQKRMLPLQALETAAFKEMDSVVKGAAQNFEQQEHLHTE
Chain of UniProt P54292 (whole entry, looked up): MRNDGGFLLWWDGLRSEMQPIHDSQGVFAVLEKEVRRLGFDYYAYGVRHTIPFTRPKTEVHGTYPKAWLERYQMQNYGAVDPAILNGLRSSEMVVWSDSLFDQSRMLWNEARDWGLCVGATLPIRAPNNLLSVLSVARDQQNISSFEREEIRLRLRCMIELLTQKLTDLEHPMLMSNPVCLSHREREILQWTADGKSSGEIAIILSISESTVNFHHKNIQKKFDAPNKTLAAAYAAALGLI
Chain of UniProt P39135 (whole entry, looked up): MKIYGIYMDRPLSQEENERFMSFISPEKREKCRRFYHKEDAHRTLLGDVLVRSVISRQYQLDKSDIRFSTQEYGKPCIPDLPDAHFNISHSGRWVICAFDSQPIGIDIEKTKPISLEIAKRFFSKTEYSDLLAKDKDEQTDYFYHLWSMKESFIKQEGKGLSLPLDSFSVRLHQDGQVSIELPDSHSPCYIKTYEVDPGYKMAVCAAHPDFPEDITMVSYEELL

C[C@@H]1C[C@H]2[C@@H]3CCC4=CC(=O)C=C[C@]4(C)[C@@]3(Cl)[C@@H](O)C[C@]2(C)[C@@]1(OC(=O)c1ccco1)C(=O)CCl  IC50 (ABCC1 (Homo sapiens, UniProt P33527); efflux, inhibitor, flow cytometry; SupT1 cells overexpressing ABCC1; with: DiIC1(5) 100 nM): 3.9 ± 2.2 µM
CNCCCNC(=O)O[C@H]1CC[C@@]2(C)[C@H](CC[C@@H]3[C@@H]2CC[C@]2(C)[C@@H](c4ccc(=O)oc4)CC[C@]32O)C1  IC50 (Sodium/potassium-transporting ATPase subunit alpha-1 (atp1a1, Xenopus laevis, UniProt Q92123); Na+,K+ pump current, inhibitor, two-electrode voltage clamp; uninjected Xenopus laevis oocytes; -60 mV holding): ~0.1 µM and 0.101 µM
Cc1cccc(C)c1OCC(=O)N[C@@H](Cc1ccccc1)[C@@H](O)C[C@H](Cc1ccccc1)NC(=O)[C@H](C(C)C)N1CCCNC1=O  IC50 (SLCO1B1 (Homo sapiens, UniProt Q9Y6L6); transport, inhibitor; 10 (unit not given), pre-incubation, with: estrone-3-sulfate): 0.6 ± 0.1 µM
COc1ccc(-c2cc3nccn3c(Nc3ncccc3C(N)=O)n2)cc1OC  IC50 (ERRα (human); reporter gene, antagonist, luciferase reporter qHTS): 2.98 µM
O=C(Cc1ccc(I)cc1)N[C@H]1CCOC1=O  IC50 (rhlR (Pseudomonas aeruginosa, UniProt P54292); reporter gene, antagonist): 8.1 µM
CC(C)c1cccc(C(C)C)c1N=C=O  IC50 (Hcn1 (Mus musculus, UniProt O88704); channel gating (V1/2 shift), inhibitor, two-electrode voltage clamp; Xenopus oocytes): 43.7 ± 3.8 µM
Cn1cc(C2=C(c3cn(CCCN)c4ccccc34)C(=O)NC2=O)c2ccccc21  IC50 (Putative glycogen synthase kinase (Leishmania major, UniProt Q4QE15, D105E/Y102F); enzyme activity, inhibitor; 90 min, 30 °C, with: ATP 2 µM): 0.89 µM
CC(C)(CO)CNC(=O)c1ccc2c(c1)C(=NNc1ccc(S(N)(=O)=O)cc1)C(=O)N2  IC50 (ROP18 (Toxoplasma gondii, UniProt Q2PAY2); enzyme activity, inhibitor): 0.39 µM
CCCCCCCCCCCCC/C=C/[C@@H](O)[C@@H](N)COP(=O)(O)OCC[N+](C)(C)C  IC50 (RYR1 (Oryctolagus cuniculus, UniProt P11716); channel open probability, inhibitor, planar lipid bilayer; with: free Ca2+ 22 µM, no calmodulin): 1.3 ± 0.3 µM
C[n+]1cc2c3c(ccc2c2ccc4cc5c(cc4c21)OCO5)OCO3  IC50 (sfp (Bacillus subtilis, UniProt P39135); inhibitor): 10 ± 1 µM
CC1=C(C(=O)NC(=O)c2cnccn2)C(c2ccccc2)NC(=O)N1 (centres unmarked)  IC50 (BCHE): 7.21 ± 0.01 µM
O=C([O-])[C@H]([O-])[C@@H]([O-])C(=O)[O-].O=C([O-])[C@H]([O-])[C@@H]([O-])C(=O)[O-].[K+].[K+].[Sb+3].[Sb+3]  IC50 (Thioredoxin glutathione reductase (Schistosoma mansoni, UniProt Q962Y6); glutathione reductase activity, inhibitor; 10 min preincubation with NADPH, with: 100 µM GSSG): 0.008 µM
CCCCN1C(=O)C(C=CC=CC=C2C(=O)N(c3ccc(S(=O)(=O)O)cc3)N=C2C)C(=O)N(CCCC)C1=O  IC50 (SLC4A1 (Homo sapiens, UniProt P02730); chloride exchange flux, inhibitor, 36Cl exchange flux; nystatin-treated cells; 0 °C, short exposure, initial binding): 0.83 ± 0.14 µM
O=C(NCCCCCn1ccc2ccc(F)cc21)Oc1ccc(F)cc1  IC50 (BCHE; enzyme activity, inhibitor, HPLC): 7.1 µM
COc1cc2c(cc1O)CC[n+]1cc3c(OC)c(OC)ccc3c(C)c1-2  IC50 (DRD4 (Homo sapiens, UniProt P21917); calcium mobilization, antagonist, FLIPR; HEK293T with Galpha15; 10 min preincubation, D4 receptor, with: dopamine at EC50): 8.4 µM
CN[C@@](C)(C[18F])C(=O)O  tissue uptake (SCID mouse DU-145 xenograft, brain; 30 min, post injection): 0.4 ± 0.1 %ID/g
O=C(CNC(=S)NN=Cc1ccc([N+](=O)[O-])cc1)c1ccc(-c2ccccc2)cc1  IC50 (BCHE; enzyme activity, inhibitor, Ellman method; with: butyrylthiocholine iodide): 212.25 ± 0.09 µM

For quick reference, copied from above:
O=C(NCCCCCn1ccc2ccc(F)cc21)Oc1ccc(F)cc1  IC50 (BCHE; enzyme activity, inhibitor, HPLC): 7.1 µM
CC1=C(C(=O)NC(=O)c2cnccn2)C(c2ccccc2)NC(=O)N1 (centres unmarked)  IC50 (BCHE): 7.21 ± 0.01 µM
